Assay results collected from several papers.
Several values in a cell are separate wells, animals, samples, runs or records. Numbers after ± are the reported error.
BPTF bromodomain: Nucleosome-remodeling factor subunit BPTF, bromodomain (BPTF, Homo sapiens, UniProt Q12830)

C#CCN(CC(=O)N(CCOC)CC(=O)N(CCOC)CC(N)=O)C(=O)CN(CCOC)C(=O)CN(CC1CCCC1)C(=O)CN(Cc1ccc(F)cc1)C(=O)C(C)N(CCCOC)C(=O)CNCc1ccc(S(N)(=O)=O)cc1 (stereo not drawn) has a Kd of 0.7 µM (MMP14 (Homo sapiens, UniProt P50281); binding, FP).
N#Cc1cnc2sc(C(=O)O)cc2c1N1CCc2[nH]nc(C(=O)N[C@@H](CC(=O)NCCOCCN3CCOCC3)c3cccc(Br)c3)c2C1 has a Kd of 0.105 µM (Interleukin-1 receptor-like 2, D1-D3 domains (IL1RL2, Homo sapiens, UniProt Q9HB29); SPR; IL-36R D1-D3 extracellular domain).
For Oc1c(Cl)cc(Cl)cc1CN1CCC(N2CCC(O)CC2)CC1, the Kd was 4900 ± 2300 µM (TP53 (Homo sapiens, UniProt P04637, M133L/N239Y/N268D/V203A/Y220C); 20 °C, protein 75 µM).
CC(=O)NCCCC[C@H](NC(=O)[C@H](CCCCN)NC(=O)[C@H](Cc1c[nH]cn1)NC(=O)[C@H](CCCNC(=N)N)NC(C)=O)C(=O)Nc1ccc2c(C)cc(=O)oc2c1 gave a Kd of 7.3 µM (SIRT1 (Homo sapiens, UniProt Q96EB6, C253S/C268S/C501S/C502S/del513-640); peptide binding, isothermal titration calorimetry; pH 7.5, 25 °C, together with: resveratrol 0.5 mM).
The Kd of O=C(O)C1(O)Oc2cc(F)ccc2N(Cc2ccccc2)C1=O (stereo not drawn) is reported as 1.43 µM and < 3 µM (Dihydroxy-acid dehydratase, chloroplastic (DHAD, Arabidopsis thaliana, UniProt Q9LIR4); microscale thermophoresis).
CNCC=C(C)C=CC=CC=CC1=C(C)CCCC1(C)C has a Kd of 0.03 µM (Rhodopsin, apoprotein (opsin) (RHO, Bos taurus, UniProt P02699); Trp fluorescence quenching; opsin membranes; titration up to 1 µM).
CC(=O)NCCCC[C@H](NC(=O)CNC(=O)[C@H](C)NC(=O)[C@H](CCCCN)NC(=O)CNC(=O)CNC(=O)[C@H](C)NC(=O)[C@@H](N)Cc1ccc(O)cc1)C(=O)N[C@@H](CC(=O)O)C(=O)N[C@@H](CO)C(=O)NCC(=O)N[C@@H](CCCCN)C(=O)N[C@@H](C)C(=O)N[C@@H](CCCCNC(C)=O)C(=O)N[C@H](C(=O)N[C@@H](CCCCNC(C)=O)C(=O)N[C@@H](C)C(=O)N[C@H](C(=O)N[C@@H](CO)C(=O)N[C@@H](CCCNC(=N)N)C(N)=O)C(C)C)[C@@H](C)O has a Kd of 650 µM (BPTF bromodomain; bromodomain binding, PrOF NMR titration; pH 7.4, 5-fluorotryptophan-labelled bromodomain, 40-50 µM).
The Kd of C[Si](C)(C)c1cc2c3c(c1)O[C@H](CO)[C@H](O)[C@@H]3OC2 is reported as greater than 6000 µM (Galectin-9, N-terminal CRD (LGALS9, Homo sapiens, UniProt O00182); binding, competitive fluorescence polarization; 20 °C, galectin-9 N-terminal domain 1.0 µM).
CC[C@H](C)[C@H](NC(=O)[C@H](CCCCN)NC(=O)[C@H](CCCCN)NC(=O)[C@@H](NC(=O)[C@H](CCC(=O)O)NC(=O)[C@H](CCC(=O)O)NC(=O)[C@H](CCC(=O)O)NC(=O)[C@H](CO)NC(=O)[C@H](CC(C)C)NC(=O)[C@H](CC(=O)O)NC(=O)[C@H](CC(C)C)NC(=O)CNC(=O)[C@H](CCCNC(=N)N)NC(=O)[C@H](CC(C)C)NC(=O)[C@H](CO)NC(=O)CNC(=O)CNC(=O)CNC(=O)CCCC[C@@H]1SC[C@@H]2NC(=O)N[C@@H]21)C(C)C)C(=O)N[C@@H](CC(C)C)C(=O)N[C@@H](CC(=O)O)C(=O)N[C@@H](CCC(=O)O)C(=O)N[C@H](C(=O)N[C@H](C(=O)N[C@@H](C)C(=O)N[C@@H](CC(=O)O)C(=O)O)C(C)C)[C@@H](C)CC has a Kd of 2 ± 0.14 µM (Fab B11 antibody (human); binding, biolayer interferometry; together with: biotinylated peptide on tips).
For CCCC[C@@H]1NC(=O)[C@H](Cc2ccc(O)cc2)NC(=O)[C@@H]2CCCN2C(=O)[C@H](CC(=O)O)NC(=O)[C@H](C)NC(=O)[C@H](Cc2ccccc2)NC(=O)[C@@H]2CSCCC(=O)N3CN(CN(C3)C(=O)CCSC[C@@H](C(=O)N[C@@H](C)C(N)=O)NC1=O)C(=O)CCSC[C@H](NC(C)=O)C(=O)N[C@@H](CC(C)(C)C)C(=O)N1CCC[C@H]1C(=O)N[C@@H](CCC(=O)O)C(=O)N[C@H](CCCCNC(=O)CCc1cn(CCOCCOCCOCCN(CCOCCOCCOCCC(=O)N[C@H]3CSCCC(=O)N4CN5CN(C4)C(=O)CCSC[C@H](NC(=O)[C@@H](CC(=O)O)NC(=O)[C@H](Cc4cccc6ccccc46)NC(=O)[C@@H]4CCCN4C3=O)C(=O)N[C@@H](CCSC)C(=O)N[C@@H](CCCCNC(=N)N)C(=O)N[C@@H](CC(=O)O)C(=O)N[C@@H](Cc3c[nH]c4ccccc34)C(=O)N[C@@H](CO)C(=O)N[C@@H]([C@@H](C)O)C(=O)N3CCC[C@H]3C(=O)N3C[C@H](O)C[C@H]3C(=O)N[C@@H](Cc3c[nH]c4ccccc34)C(=O)N[C@H](C(N)=O)CSCCC5=O)CCOCCOCCOCCn3cc(CCC(=O)NCCCC[C@H]4NC(=O)[C@H](CCC(=O)O)NC(=O)[C@@H]5CCCN5C(=O)[C@H](CC(C)(C)C)NC(=O)[C@@H](NC(C)=O)CSCCC(=O)N5CN6CN(C5)C(=O)CCSC[C@H](NC(=O)[C@H](Cc5ccc(O)cc5)NC(=O)[C@@H]5CCCN5C4=O)C(=O)N[C@@H](Cc4ccccc4)C(=O)N[C@@H](C)C(=O)N[C@@H](CC(=O)O)C(=O)N4CCC[C@H]4C(=O)N[C@@H](Cc4ccc(O)cc4)C(=O)N[C@@H](CCCC)C(=O)N[C@H](C(=O)N[C@@H](C)C(N)=O)CSCCC6=O)nn3)nn1)C(=O)N1CCC[C@H]1C(=O)N[C@@H](Cc1ccc(O)cc1)C(=O)N2, the Kd was 0.007 µM (Nectin-4 (Nectin4, Mus musculus, UniProt Q8R007); binding, SPR; captured on human CD137, together with: mouse soluble Nectin-4).
With OC[C@H]1Oc2cc(I)cc3c2[C@@H](OC3)[C@H]1O the Kd was 1200 µM (Galectin-1 (LGALS1, Homo sapiens, UniProt P09382); ligand displacement, FP).
For COC(=O)c1c(Oc2ccc(F)c(NC(=O)Cc3cccc(C(F)(F)F)c3)c2)ccc2nc(NC(=O)C3CC3)sc12, the Kd was 0.14 µM (RIPK3 (Homo sapiens, UniProt Q9Y572); binding, competition with immobilised ligand).
Cc1ccc(CCN2COc3c(cc(F)c4cccnc34)C2)cc1 has a Kd of 16 µM (rplL (Escherichia coli, UniProt P0A7K2); binding, SPR).
CC(C)C[C@@H]1NC(=O)[C@H](C(C)C)NC(=O)[C@H](CCCNC(=N)N)NC(=O)[C@@H](N)CSSC[C@@H](C(=O)O)NC(=O)[C@H](CO)NC(=O)CNC(=O)[C@H](CO)NC(=O)[C@H](CCCNC(=N)N)NC1=O gave a Kd of greater than 1000 µM (Retinoic acid receptor RXR-beta (Homo sapiens, UniProt P28702); binding, SPR).
For CN(C)CCNC(=O)c1cccc2c(NCCCCc3c(N)nc(N)nc3N)c3ccccc3nc12, the Kd was 85 ± 30 µM (RNA with single C–U pair; binding, ITC; 25 °C, 1).
CC(=O)NCCCC[C@H](NC(=O)CNC(=O)CNC(=O)[C@H](C)NC(=O)[C@@H](N)Cc1ccc(O)cc1)C(=O)N[C@@H](C)C(=O)NCC(=O)N[C@@H](CCCCN)C(=O)N[C@@H](CC(=O)O)C(=O)N[C@@H](CO)C(=O)NCC(=O)N[C@@H](CCCCN)C(=O)N[C@@H](C)C(=O)N[C@@H](CCCCN)C(=O)N[C@H](C(=O)N[C@@H](CCCCNC(C)=O)C(=O)N[C@@H](C)C(=O)N[C@H](C(=O)N[C@@H](CO)C(=O)N[C@@H](CCCNC(=N)N)C(N)=O)C(C)C)[C@@H](C)O has a Kd of 630 µM (BPTF bromodomain; bromodomain binding, PrOF NMR titration; pH 7.4, 5-fluorotryptophan-labelled bromodomain, 40-50 µM).
The Kd of COc1cc(C2CC(=O)Nc3nc(N)[nH]c(=O)c32)ccc1O (stereo not drawn) is reported as 2.1 ± 0.3 µM (uncharacterized protein (Leishmania donovani, UniProt A0A3Q8IA09); fluorometric titration; pH 8.0, 298 K).
For CC(=O)N[C@@H]1[C@@H](O[C@@H]2O[C@H](C(=O)O)[C@@H](O[C@@H]3O[C@H](COS(=O)(=O)O)[C@@H](OS(=O)(=O)O)[C@H](O[C@@H]4O[C@H](C(=O)O)[C@@H](O[C@@H]5O[C@H](COS(=O)(=O)O)[C@@H](OS(=O)(=O)O)[C@H](O[C@@H]6O[C@H](C(=O)O)[C@@H](OS(=O)(=O)O)[C@H](OS(=O)(=O)O)[C@H]6OS(=O)(=O)O)[C@H]5NC(C)=O)[C@H](OS(=O)(=O)O)[C@H]4OS(=O)(=O)O)[C@H]3NC(C)=O)[C@H](OS(=O)(=O)O)[C@H]2OS(=O)(=O)O)[C@H](OS(=O)(=O)O)[C@@H](COS(=O)(=O)O)O[C@H]1N=[N+]=[N-], the Kd was 1.01 ± 0.64 µM (Transforming growth factor beta-1 proprotein, mature (TGFB1, Homo sapiens, UniProt P01137); fluorescence polarization competition).
COc1cncc(-c2cc(F)cc(CNC(=O)c3cc(N4CC[C@@](C#N)(C5CC5)C4=O)cc(C)n3)c2)c1 has a Kd of 0.0875 µM (Proline--tRNA ligase (Plasmodium falciparum, UniProt Q8I5R7); binding, MST).
For CC(C)C[C@H](NC(=O)CNC(=O)[C@H](CC(C)C)NC(=O)[C@@H](N)CCC(=O)O)C(=O)N[C@H](C(=O)N1CCC[C@H]1C(=O)N[C@@H](COP(=O)(O)O)C(=O)N1CCC[C@H]1C(=O)N[C@@H](C)C(=O)N[C@@H](CO)C(=O)N[C@@H](CC(C)C)C(=O)N[C@@H](Cc1c[nH]c2ccccc12)C(=O)N1CCC[C@H]1C(=O)N1CCC[C@H]1C(=O)N1CCC[C@H]1C(=O)N1CCC[C@H]1C(=O)N[C@@H](CO)C(=O)N1CCC[C@H]1C(=O)N[C@@H](C)C(=O)N1CCC[C@H]1C(=O)N[C@@H](CO)C(=O)N[C@@H](CO)C(=O)N[C@H](C(=O)N[C@@H](CCCCN)C(=O)O)[C@@H](C)O)C(C)C, the Kd was 385 ± 96 µM (Peptidyl-prolyl cis-trans isomerase NIMA-interacting 1, WW domain (PIN1, Homo sapiens, UniProt Q13526); binding, NMR titration; isolated WW domain; pH 6.8, 25 °C).
For CC(=O)NCCCC[C@H](NC(=O)[C@H](C)NC(=O)[C@H](CCCCN)NC(=O)CNC(=O)[C@H](CO)NC(=O)[C@H](CC(=O)O)NC(=O)[C@H](CCCCN)NC(=O)CNC(=O)[C@H](C)NC(=O)[C@H](CCCCN)NC(=O)CNC(=O)CNC(=O)[C@H](C)NC(=O)[C@@H](N)Cc1ccc(O)cc1)C(=O)N[C@@H](C)C(=O)N[C@@H](CCCCNC(C)=O)C(=O)N[C@@H](C)C(=O)N[C@H](C(=O)N[C@@H](CO)C(=O)N[C@@H](CCCNC(=N)N)C(N)=O)C(C)C, the Kd was 910 µM (BPTF bromodomain; bromodomain binding, PrOF NMR titration; pH 7.4, 5-fluorotryptophan-labelled bromodomain, 40-50 µM).
The Kd of Cc1ccc(NC(=O)c2c(C)oc3ccc(O)c(CN4CCCCCC4)c23)cc1 is reported as 12.7 µM (mutant MYC DNA, no G-quadruplex; surface plasmon resonance).
The Kd of O=C(O)Cc1ccccc1O is reported as 220 ± 13.4 µM (p-hydroxyphenylacetate 3-hydroxylase, reductase component (C1-hpah, Acinetobacter baumannii, UniProt Q6Q271); ITC; pH 7, together with: 1 mM FMN).
OC[C@H]1Oc2cc(Cc3ccc(F)cc3)cc3c2[C@@H](OC3)[C@H]1O gave a Kd of greater than 1000 µM (Galectin-9 (LGALS9, Homo sapiens, UniProt O00182); cell-free assay, FP).

Repeated from above:
C#CCN(CC(=O)N(CCOC)CC(=O)N(CCOC)CC(N)=O)C(=O)CN(CCOC)C(=O)CN(CC1CCCC1)C(=O)CN(Cc1ccc(F)cc1)C(=O)C(C)N(CCCOC)C(=O)CNCc1ccc(S(N)(=O)=O)cc1 (stereo not drawn) has a Kd of 0.7 µM (MMP14 (Homo sapiens, UniProt P50281); binding, FP).
For COC(=O)c1c(Oc2ccc(F)c(NC(=O)Cc3cccc(C(F)(F)F)c3)c2)ccc2nc(NC(=O)C3CC3)sc12, the Kd was 0.14 µM (RIPK3 (Homo sapiens, UniProt Q9Y572); binding, competition with immobilised ligand).
The Kd of C[Si](C)(C)c1cc2c3c(c1)O[C@H](CO)[C@H](O)[C@@H]3OC2 is reported as greater than 6000 µM (Galectin-9, N-terminal CRD (LGALS9, Homo sapiens, UniProt O00182); binding, competitive fluorescence polarization; 20 °C, galectin-9 N-terminal domain 1.0 µM).
